Experimental data of several laboratories.
Compare with care: the assays were run in different laboratories. Values joined by “and” are separate records of one study, mostly repeats; a detail may differ. ± marks the error that the study gave.
PIK3CB with p85 alpha: Phosphatidylinositol 4,5-bisphosphate 3-kinase catalytic subunit beta isoform, with p85 alpha (PIK3CB, Homo sapiens, UniProt P42338)
Sequence of UniProt P42338 (whole entry, looked up): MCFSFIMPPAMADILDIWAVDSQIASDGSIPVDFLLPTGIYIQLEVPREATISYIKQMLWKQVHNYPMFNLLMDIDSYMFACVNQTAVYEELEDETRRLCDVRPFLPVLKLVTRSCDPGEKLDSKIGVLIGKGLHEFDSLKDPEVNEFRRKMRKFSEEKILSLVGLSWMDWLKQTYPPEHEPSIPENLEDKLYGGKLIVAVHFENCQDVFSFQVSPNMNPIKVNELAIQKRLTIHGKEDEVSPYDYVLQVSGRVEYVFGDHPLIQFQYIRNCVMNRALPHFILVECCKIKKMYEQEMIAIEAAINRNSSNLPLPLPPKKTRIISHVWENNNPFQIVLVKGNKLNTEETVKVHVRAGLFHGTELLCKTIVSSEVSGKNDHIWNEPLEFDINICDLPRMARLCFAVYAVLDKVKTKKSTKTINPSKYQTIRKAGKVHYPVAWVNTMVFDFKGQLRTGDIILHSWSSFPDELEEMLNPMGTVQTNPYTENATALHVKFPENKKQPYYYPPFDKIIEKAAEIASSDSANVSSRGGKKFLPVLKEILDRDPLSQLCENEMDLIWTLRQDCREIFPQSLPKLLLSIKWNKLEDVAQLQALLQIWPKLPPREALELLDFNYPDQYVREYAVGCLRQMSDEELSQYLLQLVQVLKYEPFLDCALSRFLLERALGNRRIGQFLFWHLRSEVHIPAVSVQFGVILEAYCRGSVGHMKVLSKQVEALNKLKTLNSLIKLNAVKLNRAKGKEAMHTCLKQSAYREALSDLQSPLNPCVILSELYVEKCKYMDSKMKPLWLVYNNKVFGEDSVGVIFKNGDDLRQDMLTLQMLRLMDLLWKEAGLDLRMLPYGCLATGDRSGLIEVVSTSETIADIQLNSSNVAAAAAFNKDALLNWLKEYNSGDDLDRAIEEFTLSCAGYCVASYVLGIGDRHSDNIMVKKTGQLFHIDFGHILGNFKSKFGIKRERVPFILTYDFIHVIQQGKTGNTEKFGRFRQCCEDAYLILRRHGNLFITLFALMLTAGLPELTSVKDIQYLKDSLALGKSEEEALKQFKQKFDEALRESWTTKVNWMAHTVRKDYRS
PIK3CB: Phosphatidylinositol 4,5-bisphosphate 3-kinase catalytic subunit beta isoform (PIK3CB, Homo sapiens, UniProt P42338)

O=C(/C=C/c1ccccc1)Oc1ccc2c(c1)O/C(=C\C=C\c1ccccc1)C2=O
IC50 (PIK3CB with p85 alpha; enzyme activity, inhibitor, ELISA): > 1000 nM

CC(=O)c1cnc(N)nc1N1CC[C@H]1c1nn2ccc(Cl)c2c(=O)n1-c1ccccc1
Kd (PIK3CB with p85 alpha; surface plasmon resonance; 25 °C): 640 nM

COc1c(OCCCN)ccc2c1N=C(NC(=O)c1cccnc1)N1CCN=C21
IC50 (PIK3CB; enzyme activity, inhibitor, radiometric): 22.3 nM

N#Cc1c(N)nc(N)nc1OCC1CCCCC1
IC50 (PIK3CB; enzyme activity, inhibitor): 18000 nM and 23000 nM

Cc1nc(NC(=O)N2CCCC2)sc1-c1csc(C(C)(C)C)n1
IC50 (PIK3CB; enzyme activity, inhibitor, TR-FRET): > 25000 nM

C/C(=N\NC(N)=S)c1c(O)c2ccccc2oc1=O
IC50 (PIK3CB with p85 alpha; kinase activity, ADP-Glo): 174 ± 10 nM

O=C(NC1=Nc2ccccc2C2=NCCCN12)c1cccnc1
IC50 (PIK3CB; enzyme activity, inhibitor, radiometric): > 10000 nM

COC(=O)CCSc1nc2n(n1)C(c1cccc(OC)c1)C(C(=O)Nc1cncc(C)c1)=C(C)N2 (stereo not shown)
IC50 (PIK3CB with p85 alpha; enzyme activity, inhibitor, ADP-Glo): 3100 nM

Nc1ccc(C(=O)NC2=Nc3ccccc3C3=NCCN23)cn1
IC50 (PIK3CB; enzyme activity, inhibitor, radiometric): 49.3 nM

Cc1ccc(CN2C(=O)/C(=N\c3ccc(Cl)cc3Br)c3ccccc32)cc1
IC50 (PIK3CB; enzyme activity, inhibitor, ADP detection): 9.63 nM

Repeated from above:
C/C(=N\NC(N)=S)c1c(O)c2ccccc2oc1=O
IC50 (PIK3CB with p85 alpha; kinase activity, ADP-Glo): 174 ± 10 nM

O=C(NC1=Nc2ccccc2C2=NCCCN12)c1cccnc1
IC50 (PIK3CB; enzyme activity, inhibitor, radiometric): > 10000 nM
